Experimental data of several laboratories.
Compare with care: the assays were run in different laboratories. ± gives the spread as reported. Where no end group is shown, it is not given here. No end group written: not given here. [ ]: non-standard residue; d: D form.

| Molecule | cell line | assay | system | setting | how to read | quantity | value |
| --- | --- | --- | --- | --- | --- | --- | --- |
| CCCCCCCCCCCCCCCCCCOc1ccccc1CC(=O)OCC[N+](CC)(CC)CC | four leukaemia cell lines | – | – | – | – | GI50 | 1.29 µM |
| O=c1[nH]c2ccccc2nc1/C=C/c1ccc(F)cc1 | NCI-H460 | cell growth or viability, MTT | – | 72 h | – | IC50 | 37.4 µM |
| C#C[C@@]1(O)[C@@H](CO)O[C@@H](n2cc(I)c3c(N)ncnc32)[C@@H]1O | U-251 | cell growth or viability, SRB | – | 48 h | – | GI50 | 0.074 µM |
| Nc1nc2[nH]c(CCCc3ccc(C(=O)N[C@@H](CCC(=O)O)C(=O)O)c(F)c3)cc2c(=O)[nH]1 | R2/PCFT4 CHO expressing human PCFT | cell growth | – | – | relative to: nonfluorinated over fluorinated homologue | IC50 ratio | 6 fold |
| CNC[C@H](O)c1cccc(O)c1 | hiPSC-derived 3D engineered cardiac tissue | contractility | serum-free medium | concentration not given, 15 min, paced at 1 Hz | relative to: time-matched vehicle | active force | increased |
| V[dL]IA (D-Leu2) | PC-12 | protection from Aβ1–42 toxicity, MTT | – | concentration not given, 6 h, Aβ to peptide ratio 1:5, with: Aβ1–42 2 µM | relative to: untreated cells | cell viability | 70% |
| CCn1c(-c2ccccc2)cs/c1=N/N=C(\C)c1ccccn1 | HEp-2 | cell growth or viability, SRB | – | 100 µg/mL, 48 h | – | inhibition | 68.1% |
| CCN(CC)CCNC(=O)c1c(C)[nH]c(/C=C2\C(=O)Nc3ccc(F)cc32)c1C | NIH3T3 in SKOV/NIH microtissues | fibroblast toxicity | – | 168 h, chronic toxicity, unit not given | relative to: AC50 ATP over AC50 NanoLUC, day 7 | therapeutic window | 1.64 |
| CCN1C(=O)C(C)S/C1=N/N=C(\C)c1ccccn1 (stereo not drawn) | HEp-2 | cell growth or viability, SRB | – | 100 µg/mL, 48 h | – | inhibition | 74.7% |
| C[C@@H]1C[C@H]2[C@@H]3CCC4=CC(=O)C=C[C@]4(C)[C@@]3(F)[C@@H](O)C[C@]2(C)[C@@]1(O)C(=O)CO | A549 cells, GR knockdown | – | – | concentration not given, 24 h, weaker than with normal GR, with: TNF-α 20 ng/mL | – | COX-2 mRNA level | decreased |
| AKERLEAKHRERMSQVM | A-1 fibroblasts | cell number increase | peptide | concentration not given, 3 d, 10% FCS | relative to: basal increase | growth-promoting activity | active |
| VV[dL]A (D-Leu3) | PC-12 | protection from Aβ1–42 toxicity, MTT | – | concentration not given, 6 h, Aβ to peptide ratio 1:1, with: Aβ1–42 2 µM | relative to: untreated cells | cell viability | 70% |
| Cc1ccc(-n2c(SCC(=O)NNC(=O)Nc3ccccc3)nc3ccccc3c2=O)cc1 | HCT-116 | annexin V-FITC/PI flow cytometry | – | concentration not given, 24 h | – | necrotic cells | 3.69% |
| NC(=O)c1ccc(-c2nc(-c3ccc4c(c3)OCO4)c(-c3ccccn3)[nH]2)cc1 | iPSC-derived intestinal progenitor cells | item: villin 1 | – | concentration not given | relative to: DMSO | mRNA level | increased |
| O=NN(CCCl)C(=O)NCCCl | U-87 MG | cell growth or viability, WST-1 | – | 500 µM, 48 h | – | viability | 11.6% |
| C[C@@H]1C[C@H]2[C@@H]3CCC4=CC(=O)C=C[C@]4(C)[C@@]3(F)[C@@H](O)C[C@]2(C)[C@@]1(O)C(=O)CO | iPSC-derived intestinal progenitor cells | item: ISX | – | concentration not given | relative to: DMSO | mRNA level | increased |
| CC(C)[C@@H](CC[C@@H](C)[C@H]1CC[C@H]2[C@@H]3[C@H](O)C[C@H]4C[C@@H](NCCCNCCCCNCCCN)CC[C@]4(C)[C@H]3CC[C@]12C)OS(=O)(=O)O | MCF-10A 10 A.B2 expressing chimeric HER2 | proliferation and luminal apoptosis | – | concentration not given, 3D culture, with: AP1510 1 µM | – | acinar morphogenesis | inhibited |
| VV[Nle]A (Nle3; Nle = CCCC[C@H](N)C(=O)O) | PC-12 | protection from Aβ1–42 toxicity, MTT | – | concentration not given, 6 h, Aβ to peptide ratio 1:5, with: Aβ1–42 2 µM | relative to: untreated cells | cell viability | 70% |
| Cc1ccc(-c2cn3cc(C)ccc3n2)cc1 | human pluripotent stem cells | MTT | – | low nanomolar, 7 days, single cell expansion | relative to: Y-27632 (ROCK inhibitor) | viability | ≤ 4 fold |
| C/C(=N\N=C1/NC(=O)/C(=C\c2ccc(F)cc2)S1)c1ccccn1 | HEp-2 | cell growth or viability, SRB | – | 100 µg/mL, 48 h | – | inhibition | 67.7% |
| NC(=O)c1ccc(-c2nc(-c3ccc4c(c3)OCO4)c(-c3ccccn3)[nH]2)cc1 | HepG2 cells | reporter gene, inhibitor, item: SBE4-luciferase | – | 10 µM, 8 h, with: activin A | – | reporter activity | decreased |
| CN(C)CCCN=c1c2ccccc2n(C)c2[nH]c(=O)n(C)c(=O)c12 | NIH3T3 in HEY/NIH microtissues | fibroblast toxicity | – | chronic toxicity, unit not given | relative to: AC50 ATP over AC50 NanoLUC, day 7 | therapeutic window | 1.19 |
| CC[C@H](C)[C@H](NC(=O)[C@H](NC(=O)[C@@H](N)C(C)C)C(C)C)C(=O)N[C@@H](C)C(N)=O | PC-12 | Aβ42-induced neurotoxicity, inhibitor, MTT | – | concentration not given, 6 h, 37 °C, peptide to Aβ42 1:2, with: Aβ42 2 µM | relative to: untreated cells | viability | 75.2% |

| Molecule | cell line | assay | system | setting | how to read | quantity | value |
| --- | --- | --- | --- | --- | --- | --- | --- |
| Cy5-CVWSLQNTLFM (Cy5-labelled; sequence looked up) | INS-1E | glucose-stimulated insulin secretion, proinsulin-luciferase | peptide | 10 µM, 5 min, with: glucose 20 mM, 20 min | – | insulin secretion | no effect |
| C/C(=N\N=C1/NC(=O)C(C)S1)c1ccccn1 (stereo not drawn) | HEp-2 | cell growth or viability, SRB | – | 100 µg/mL, 48 h | – | inhibition | 71.7% |
| Cn1c(=O)c(F)c(Nc2ccc(I)cc2F)c2c(=O)n(C[C@@H](O)CO)cnc21 | NIH3T3 in HEY/NIH microtissues | fibroblast toxicity | – | 168 h, chronic toxicity, unit not given | relative to: AC50 ATP over AC50 NanoLUC, day 7 | therapeutic window | 162 |
| [dL]VIA (D-Leu1) | PC-12 | protection from Aβ1–42 toxicity, MTT | – | concentration not given, 6 h, Aβ to peptide ratio 1:5, with: Aβ1–42 2 µM | relative to: untreated cells | cell viability | 70% |
| COc1ccc(/C=C2/S/C(=N/N=C(\C)c3ccccn3)NC2=O)cc1OC | HEp-2 | cell growth or viability, SRB | – | 100 µg/mL, 48 h | – | inhibition | 71.5% |
| COc1cc(OC)c(OC)cc1C=NNc1nc(-c2ccc(C#N)cc2)cs1 | HCT-116 | colony formation | – | 5 µM, 24 h | – | inhibition | 5 to 50% |
| COc1cc(N2CCC(N3CCN(C)CC3)CC2)ccc1Nc1ncc(Cl)c(Nc2ccccc2S(=O)(=O)C(C)C)n1 | NIH3T3 in SKOV/NIH microtissues | fibroblast toxicity | – | 168 h, chronic toxicity, unit not given | relative to: AC50 ATP over AC50 NanoLUC, day 7 | therapeutic window | 1.44 |
| ANKHYF | B16-F10 | – | peptide | 2 µg coated per well, 30 to 60 min | relative to: thrombospondin-coated wells | adherent cells | 8% |
| C[C@H](CS)C(=O)N1CCC[C@H]1C(=O)O | hiPSC-derived 3D engineered cardiac tissue | contractility | serum-free medium | concentration not given, 15 min, paced at 1 Hz | relative to: time-matched vehicle | active force | no effect |
| CC12CCC3c4ccc(O)cc4CCC3C1CCC2(O)C=Cc1cc(C(F)(F)F)cc(C(F)(F)F)c1 (stereo not drawn) | Ishikawa | alkaline phosphatase induction, agonist | – | concentration not given, 3 d | relative to: estradiol | relative stimulatory activity | 3.5 ± 0.7% |
| VV[dV]A (D-Val3) | PC-12 | protection from Aβ1–42 toxicity, MTT | – | concentration not given, 6 h, Aβ to peptide ratio 1:5, with: Aβ1–42 2 µM | relative to: untreated cells | cell viability | 70% |
| CSCC[C@@H]1NC(=O)[C@H](CCCNC(=N)N)NC(=O)[C@H](C(C)C)NC(=O)[C@H](C(C)C)NC(=O)[C@H]([C@@H](C)O)NC(=O)[C@H](Cc2c[nH]c3ccccc23)NC(=O)CNC(=O)[C@H](CO)NC(=O)[C@H](Cc2ccc(O)cc2)NC1=O | MCF7, synchronized in early S phase | microinjection, time-lapse microscopy | – | 50 µM | – | aberrant mitoses | 46.1% |
| Cc1[nH]c2ccccc2c1CCNCc1ccc(/C=C/C(=O)NO)cc1 | GIST-T1 (KIT exon 11 mutant) | item: phospho-KIT | – | concentration not given, after compound washout | – | time to KIT signalling reactivation | ≤ 24 h |
| VV[dA]A (D-Ala3) | PC-12 | protection from Aβ1–42 toxicity, MTT | – | concentration not given, 6 h, Aβ to peptide ratio 1:5, with: Aβ1–42 2 µM | relative to: untreated cells | cell viability | 70% |
| CCc1ccc(C=C2SC(=S)NC2=O)cc1 | human podocytes | RT-PCR or Western blot, item: VEGF-A165b and VEGF-A165a | high glucose (diabetic) | 10 µM, 48 h | – | VEGF-A165b/VEGF-A165a ratio | 5.75 |
| COc1ccc2c(c1)CC[C@@H]1[C@@H]2CC[C@]2(C)[C@@H](NCCCCCCN3C(=O)C=CC3=O)CC[C@@H]12 | NCI-H838 | inhibitor, item: cytosolic Ca2+ | – | 50 µM, with: PACAP-27 100 nM | – | PACAP-27-induced Ca2+ increase | inhibited |
| O=C(Nc1ccc([N+](=O)[O-])cc1Cl)c1cc(Cl)ccc1O | NIH3T3 in HEY/NIH microtissues | fibroblast toxicity | – | 168 h, chronic toxicity, unit not given | relative to: AC50 ATP over AC50 NanoLUC, day 7 | therapeutic window | 0.329 |
| Cc1cc(C)cc(/C=C/[C@]2(O)CC[C@H]3[C@@H]4CCc5cc(O)ccc5[C@H]4CC[C@@]32C)c1 | Ishikawa | alkaline phosphatase induction, agonist | – | concentration not given, 3 d | relative to: estradiol | relative stimulatory activity | 3.5 ± 0.7% |
| V[dP]IA (D-Pro2) | PC-12 | protection from Aβ1–42 toxicity, MTT | – | concentration not given, 6 h, Aβ to peptide ratio 1:5, with: Aβ1–42 2 µM | relative to: untreated cells | cell viability | 76% |
| Nc1ccc(-c2ccc3ncc4ccc(=O)n(-c5cccc(C(F)(F)F)c5)c4c3c2)cn1 | NIH3T3 in SKOV/NIH microtissues | fibroblast toxicity | – | chronic toxicity, unit not given | relative to: AC50 ATP over AC50 NanoLUC, day 7 | therapeutic window | 6 |
| VV[Aib]A (Aib3; Aib = CC(C)(N)C(=O)O) | PC-12 | protection from Aβ1–42 toxicity, MTT | – | concentration not given, 6 h, Aβ to peptide ratio 1:1, with: Aβ1–42 2 µM | relative to: untreated cells | cell viability | 70.3% |
| CC(C)NCC(O)COc1cccc2ccccc12 (racemic) | hiPSC-derived 3D engineered cardiac tissue | contractility | serum-free medium | concentration not given, 15 min, paced at 1 Hz | relative to: time-matched vehicle | active force | decreased |

Repeated from above:
| Molecule | cell line | assay | system | setting | how to read | quantity | value |
| --- | --- | --- | --- | --- | --- | --- | --- |
| Cc1cc(C)cc(/C=C/[C@]2(O)CC[C@H]3[C@@H]4CCc5cc(O)ccc5[C@H]4CC[C@@]32C)c1 | Ishikawa | alkaline phosphatase induction, agonist | – | concentration not given, 3 d | relative to: estradiol | relative stimulatory activity | 3.5 ± 0.7% |
| V[dP]IA (D-Pro2) | PC-12 | protection from Aβ1–42 toxicity, MTT | – | concentration not given, 6 h, Aβ to peptide ratio 1:5, with: Aβ1–42 2 µM | relative to: untreated cells | cell viability | 76% |
| Nc1ccc(-c2ccc3ncc4ccc(=O)n(-c5cccc(C(F)(F)F)c5)c4c3c2)cn1 | NIH3T3 in SKOV/NIH microtissues | fibroblast toxicity | – | chronic toxicity, unit not given | relative to: AC50 ATP over AC50 NanoLUC, day 7 | therapeutic window | 6 |
